Measurements of several laboratories.
Compare with care: the assays were run in different laboratories. Values joined by “and” are separate records of one study, mostly repeats; a detail may differ. ± marks the error that the study gave. In brackets after ≈: the same amount, converted by molar mass.

| Compound | assay | system | setting | scale | measurement | result |
| --- | --- | --- | --- | --- | --- | --- |
| CCCCCCCCCCCCCC(=O)N[C@@H](Cc1ccccc1)C(=O)N[C@@H](CCC(=O)O)C(=O)N[C@@H](CCC(=O)O)C(=O)N[C@@H](CCC(=O)O)C(=O)N[C@@H](CCCNC(=N)N)C(=O)N[C@@H](CC(C)C)C(=O)O | – | lyophilized powder | 22 °C | – | storage stability | ≥ 2 weeks |
| CC[C@H](C)[C@H](NC(=O)[C@H](CCCCN)NC(=O)CNC(=O)[C@H](CC(C)C)NC(=O)[C@@H](NC(=O)[C@H](C)NC(=O)[C@H](CCCCN)NC(=O)CNC(=O)[C@H](C)NC(=O)CNC(=O)[C@H](CCCCN)NC(=O)[C@H](CCSC)NC(=O)[C@H](CCCCN)NC(=O)[C@@H](NC(=O)[C@H](Cc1c[nH]c2ccccc12)NC(=O)[C@H](CC(C)C)NC(=O)[C@H](CCC(=O)O)NC(=O)[C@H](CCCCN)NC(=O)[C@H](CC(C)C)NC(=O)[C@@H](N)CC(C)C)[C@@H](C)O)C(C)C)C(=O)N[C@@H](CCCCN)C(=O)NCC(=O)N[C@@H](CC(C)C)C(=O)N[C@@H](CC(C)C)C(=O)O | acrylamide quenching | DOPC vesicles, 250 µM lipid | 2 µM, with: acrylamide | – | Stern-Volmer constant | 2.49 ± 0.32 M⁻¹ |
| CCCCCOc1ccc(-c2cc(-c3ccc(C(=O)N[C@H]4C[C@@H](O)[C@@H](O)NC(=O)[C@@H]5[C@@H](O)[C@@H](C)CN5C(=O)[C@H]([C@H](O)CC(N)=O)NC(=O)[C@H]([C@H](O)[C@@H](O)c5ccc(O)c(O)c5)NC(=O)[C@@H]5C[C@@H](O)CN5C(=O)[C@H]([C@@H](C)O)NC4=O)cc3)no2)cc1 | – | human normal hepatic function, plasma | intravenous, up to 16 h, concentration below limit | – | lower limit of quantification | < 0.05 µg/mL |
| CC[C@H](C)[C@H](NC(=O)[C@H](CCCCN)NC(=O)[C@H](CCCCN)NC(=O)[C@H](Cc1ccccc1)NC(=O)[C@H](CC(C)C)NC(=O)[C@H](CCCCN)NC(=O)[C@H](Cc1c[nH]c2ccccc12)NC(=O)[C@@H](CCCCN)NC(C)=O)C(=O)NCC(=O)N[C@@H](C)C(=O)N[C@H](C(=O)N[C@@H](CC(C)C)C(=O)N[C@H](CCCCN)C(=O)N[C@H](C(=O)N[C@@H](CC(C)C)C(N)=O)C(C)C)C(C)C | circular dichroism | PE:PG:CL liposomes | 60 µM, lipid to peptide ratio 1 | reference: reference peptide | helical content | ~84% |
| CC(C)C[C@@H](NC(=O)[C@@H](Cc1ccccc1)NC(=O)[C@H](N)Cc1ccccc1)C(=O)N[C@H](CCCCN)C(=O)N1CCC(N)(C(=O)O)CC1 | – | human, plasma | intravenous, 5 µg/kg | – | volume of distribution | 0.155 L/kg |
| CC[C@@H](C)[C@@H](NC(=O)[C@@H](C)NC(=O)[C@@H](CCCCN)NC(=O)[C@@H](CC(C)C)NC(=O)[C@@H](C)NC(=O)[C@H](NC(=O)[C@@H](Cc1c[nH]cn1)NC(=O)[C@@H](CC(C)C)NC(=O)[C@H](NC(=O)[C@H](NC(=O)[C@@H](CCCCN)NC(=O)[C@@H](CCCCN)NC(=O)[C@@H](C)NC(=O)[C@@H](CO)NC(=O)[C@@H](CCCCN)NC(=O)[C@@H](Cc1ccccc1)NC(=O)[C@H](NC(=O)[C@@H](CCCCN)NC(=O)[C@@H](CC(C)C)NC(=O)[C@@H](Cc1ccccc1)NC(=O)[C@@H](CO)NC(=O)[C@@H](CCCCN)NC(=O)[C@@H](Cc1c[nH]c2ccccc12)NC(=O)[C@@H](CCCCN)NC(C)=O)[C@H](C)O)[C@H](C)O)C(C)C)[C@H](C)O)C(=O)N[C@H](CO)C(=O)N[C@H](CO)C(N)=O | circular dichroism | aqueous buffer | pH 7.0, 5 °C | reference: reference peptide in TFE | helical content | 3% |
| COc1ccc(C)cc1NC(=O)OC1CC2CCCC(C1)N2Cc1ccc(CC[18F])cc1 (centres unmarked) | – | mouse, blood | intravenous, 5 min, tumour-bearing | – | tracer uptake | 1.88 %ID/g |
| CN[C@](C)(C[18F])C(=O)O | – | SCID mouse U87 xenograft, spleen | 120 min, post injection | – | tissue uptake | 6 ± 2.4 %ID/g |
| CC[C@H](C)[C@H](NC(=O)[C@H](CCCNC(=N)N)NC(=O)[C@H](CCCCN)NC(=O)[C@H](CC(C)C)NC(=O)[C@H](CC(C)C)NC(=O)CNC(=O)[C@H](Cc1c[nH]cn1)NC(=O)[C@H](C)NC(=O)[C@@H](N)CC(=O)O)C(=O)N[C@@H](CCCCN)C(=O)N[C@H](C(=O)N[C@@H](CC(C)C)C(=O)N[C@@H](CC(C)C)C(N)=O)[C@@H](C)O | haemolysis | human red blood cells | 1 h | – | HD10 | 64 µM |
| CSCC[C@H](NC(=O)CNC(=O)[C@H](CC(=O)O)NC(=O)[C@@H](NC(=O)[C@@H](NC(=O)[C@@H](NC(=O)CNC(=O)[C@H](CCC(N)=O)NC(=O)[C@H](CCSC)NC(=O)[C@H](CC(=O)O)NC(=O)[C@H](C)NC(=O)[C@H](C)NC(=O)[C@@H](NC(=O)[C@H](CO)NC(=O)[C@@H](N)CC(C)C)[C@@H](C)O)C(C)C)C(C)C)[C@@H](C)O)C(=O)N[C@@H](C)C(=O)N[C@@H](CO)C(=O)NCC(=O)N[C@@H](CC(C)C)C(=O)N[C@@H](CC(=O)O)C(=O)N[C@@H](CCCCN)C(=O)N[C@@H](CC(=O)O)C(=O)N[C@@H](Cc1ccc(O)cc1)C(=O)N[C@@H](CC(C)C)C(=O)N[C@@H](CCCCN)C(=O)N1CCC[C@H]1C(=O)N[C@@H](CC(=O)O)C(=O)N[C@@H](CC(=O)O)C(=O)O | – | human, serum | intravenous, 3.33 mg/kg, patients, infusion | – | half-life | 6.42 min |
| CCC(=C(c1ccc(Cl)cc1)c1ccc(OCCN2CCOCC2)cc1)c1ccc(OC)cc1 | – | C57BL/6 mice, plasma | oral, 400 mg/kg | reference: male over female | AUC(0-last) ratio | 2.2 fold |
| C[S]1CC[S]2CC[P](CO)(CO)[99Tc+]12.[C-]#[O+].[C-]#[O+].[C-]#[O+] | – | CF-1 mouse | intravenous, 4 h | – | uptake in small intestine | 3.06 %ID and 3.1 %ID |
| CN(C)C(CNC(=O)Nc1cc(C(F)(F)F)ccc1N1CCOCC1)c1ccncc1 (centres unmarked) | – | mouse, serum | intraperitoneal, 180 mg/kg single dose | – | serum sodium | 145 mmol/L |
| CCCCCCCC(=O)OC[C@H](NC(=O)[C@H](CO)NC(=O)CN)C(=O)N[C@@H](Cc1ccccc1)C(=O)N[C@@H](CC(C)C)C(=O)N[C@@H](CO)C(=O)N1CCC[C@H]1C(=O)N[C@@H](CCC(=O)O)C(=O)N[C@@H](Cc1cnc[nH]1)C(=O)N[C@@H](CCC(N)=O)C(=O)N[C@@H](CCCNC(=N)N)C(=O)N[C@H](C(=O)N[C@@H](CCC(N)=O)C(=O)N[C@@H](CCC(N)=O)C(=O)N[C@@H](CCCNC(=N)N)C(=O)N[C@@H](CCCCN)C(=O)N[C@@H](CCC(=O)O)C(=O)N[C@@H](CO)C(=O)N[C@@H](CCCCN)C(=O)N[C@@H](CCCCN)C(=O)N1CCC[C@H]1C(=O)N1CCC[C@H]1C(=O)N[C@@H](C)C(=O)N[C@@H](CCCCN)C(=O)N[C@@H](CC(C)C)C(=O)N[C@@H](CCC(N)=O)C(=O)N1CCC[C@H]1C(=O)N[C@@H](CCCNC(=N)N)C(=O)O)C(C)C | – | human, both sexes, plasma | intravenous infusion, 5 µg/kg/h, 65 min infusion | – | clearance | 5.47 ± 0.69 mL/min/kg |
| CN(C)c1cc(CN2CCCCC2)c(O)c2c1C[C@H]1C[C@H]3[C@H](N(C)C)C(O)=C(C(N)=O)C(=O)[C@@]3(O)C(O)=C1C2=O | – | cynomolgus monkey | intravenous infusion, dose not given | – | tolerability | not toxic |
| C=Cc1cc(O)cc2nc(-c3ccc(O)c([76Br])c3)oc12 | – | female C57BL/6 mouse, liver | 1 h, high dose | – | tissue uptake | 0.4 ± 0.16 %ID/g |
| CC[C@H](C)[C@@H]1NC(=O)[C@H](CCC(=O)O)NC(=O)[C@H](C)NC(=O)[C@H](CC(C)C)NC(=O)[C@H](CC(C)C)NC(=O)C2(CCCC=CCCCCCC[C@@](C)(C(=O)N[C@@H](CC(N)=O)C(=O)N[C@@H](CC(C)C)C(=O)N[C@@H](CO)C(=O)O)NC(=O)[C@H](CCCCN)NC1=O)CCCC=CCCC[C@](C)(NC(=O)[C@H](CCCNC(=N)N)NC(=O)[C@H](CC(N)=O)NC(=O)[C@H](CCC(=O)O)NC(=O)[C@@H]1CCCN1C(=O)[C@H](CC(=O)O)NC(=O)c1ccc3c(c1)C(=O)OC31c3ccc(O)cc3Oc3cc(O)ccc31)C(=O)N[C@@H](C)C(=O)N[C@@H](CCCCN)C(=O)N[C@@H](CCCCN)C(=O)N2 (some centres unmarked) | – | – | – | – | solubility limit | 4 µM (≈ 11 µg/mL) |
| CSCC[C@H](NC(=O)[C@H](Cc1ccc(O)cc1)NC(=O)[C@@H](CC(=O)O)NC(=O)CN1CCN(CC(=O)O)CCN(CC(=O)O)CCN(CC(=O)O)CC1)C(=O)NCC(=O)N[C@@H](Cc1c[nH]c2ccccc12)C(=O)N[C@@H](CCSC)C(=O)N[C@@H](CC(=O)O)C(=O)N[C@@H](Cc1ccccc1)C(N)=O | – | MF1 nude mouse, male, CA20948 xenograft | intravenous, 0.2 µg, 4 h, 111In-labelled | reference: tumour over kidney | tumour-to-kidney ratio | 0.2 |
| COc1cccc2c1C(=O)c1c(O)c3c(c(O)c1C2=O)CC(O)(C(CO)=NNC(=O)CCCCC(=O)NNC(=O)CCCc1ccc(I)cc1)CC3OC1CC(N)C(O)C(C)O1 (centres unmarked) | – | ICR mice, male, plasma | intravenous, 6 mg/kg, equimolar doses | reference: compound over free drug | terminal half-life ratio | 5.5 fold |
| CCCC[C@H]1C(=O)N(C)[C@@H](CCCC)C(=O)N[C@@H](CCCNC(=O)CN2CCN(CC(=O)O)CCN(CC(=O)O)CCN(CC(=O)O)CC2)C(=O)N[C@H](C(=O)NCC(N)=O)CSCC(=O)N[C@@H](Cc2ccc(O)cc2)C(=O)N(C)[C@@H](C)C(=O)N[C@@H](CC(N)=O)C(=O)N2CCC[C@H]2C(=O)N[C@@H](Cc2c[nH]cn2)C(=O)N[C@@H](CC(C)C)C(=O)N(C)CC(=O)N[C@@H](Cc2c[nH]c3ccccc23)C(=O)N[C@@H](CO)C(=O)N[C@@H](Cc2c[nH]c3ccccc23)C(=O)N1C [gallium-68 labelled] | static PET | NOD/SCID mice, CHO-hPD-L1 xenograft, CHO-hPD-L1 tumour | intravenous, 1 h post injection, after two atezolizumab treatments, with: atezolizumab 10 mg/kg | – | tumour uptake | 3.2 ± 0.17 %ID/g |
| CC(CCC(=O)NCC(=O)O)C1CCC2C3C(O)CC4CC(OC5OC(C(=O)O)C(O)C(O)C5O)CCC4(C)C3CCC12C (centres unmarked) | – | human, SLCO1B1 c.521 T/C, plasma | fasting, geometric mean, sex-adjusted | – | plasma concentration | 44.6 ng/mL |
| O=C(O)CCCN1CCN2CCN(CC1)CC(=O)[O][Al]([18F])[O]C(=O)C2 | – | Sprague-Dawley rat, normal, intestines and stomach | 60 min | – | bowel uptake | 0.7 ± 0.1 %ID |
| CC(C)[C@H](NC(=O)CNC(=O)[C@H](CCC(N)=O)NC(=O)[C@H](C)N)C(=O)O | – | human | intravenous infusion, 45 mg/kg/h, 2 h infusion | – | subjects with mild adverse events | 50% |

Excerpt of the above:
| Compound | assay | system | setting | scale | measurement | result |
| --- | --- | --- | --- | --- | --- | --- |
| COc1ccc(C)cc1NC(=O)OC1CC2CCCC(C1)N2Cc1ccc(CC[18F])cc1 (centres unmarked) | – | mouse, blood | intravenous, 5 min, tumour-bearing | – | tracer uptake | 1.88 %ID/g |
